Published values pooled from the literature.
PIK3CD with p85 alpha: Phosphatidylinositol 4,5-bisphosphate 3-kinase catalytic subunit delta isoform, with p85 alpha (PIK3CD, Homo sapiens, UniProt O00329)
PIK3CD: Phosphatidylinositol 4,5-bisphosphate 3-kinase catalytic subunit delta isoform (PIK3CD, Homo sapiens, UniProt O00329)

target	test	conditions	scale	quantity	result	SMILES
PIK3CD with p85 alpha	kinase activity, inhibitor	1 µM		inhibition	4%	C=CC(=O)Nc1cc(Nc2nccc(Nc3cc(Cl)c(F)cc3C(C)(C)O)n2)c(OC)cc1N1CC[C@@H](N(C)C)C1
PIK3CD with p85 alpha	kinase activity	10 µM, together with: ATP 10 µM		remaining activity	100%	COc1cc(F)ccc1-c1ncnc(Nc2cccc(C[S@](C)(=N)=O)c2)n1
PIK3CD with p85 alpha	enzyme activity, KinaseProfiler panel	1 µM		remaining activity	96%	COc1cc(Cl)c(C(=O)N[C@@H](CN[C@H]2CC[C@@H](N)CC2)Cc2ccc(C#N)cc2)cc1-c1ccc(CN[C@H](C)c2ccc(C)cc2)o1
PIK3CD with p85 alpha	kinase activity	1 µM, p110d/p85a)(h human, together with: ATP 10 µM	reference: DMSO	remaining activity	101%	COc1cc(-c2cncc3c2CN(C)Cc2cc(N4CCNCC4)ccc2-3)cc(OC)c1OC
PIK3CD	enzyme activity	10 µM		remaining activity	100%	O=C(NC1CCC1)c1ccc2nc(-c3cccc(NS(=O)(=O)NCCN4CCCCC4)c3)cn2c1
PIK3CD with p85 alpha	inhibitor, KinaseProfiler panel	1 µM		inhibition	-2%	CN1CC(Oc2cnc(C#N)cc2-c2ccn3nc(NC(=O)C4CC4)cc3c2)C1
PIK3CD	KINOMEscan	10 µM		remaining binding	0.15%	Cc1nc(NC(=O)N2CCC[C@H]2C(N)=O)sc1-c1ccnc(C(C)(C)C(F)(F)F)c1
PIK3CD with p85 alpha	kinase activity, inhibitor	10 µM, together with: PIK3R1 complex		inhibition	-3%	O=C(CSc1nc2nccnc2c(=O)n1CCc1ccccc1)Nc1nccs1
PIK3CD with p85 alpha	enzyme activity, inhibitor	10 µM, p110d/p85a)(h human, together with: ATP 10 µM		remaining activity	74%	Cc1ccc(NC(=O)c2ccc(C)c(C(F)(F)F)c2)cc1C#Cc1nn(C2CCC(O)CC2)c2ncnc(N)c12 (centres unmarked)
PIK3CD with p85 alpha	kinase activity, inhibitor	10 µM, together with: PIK3R1 complex		inhibition	7%	CS(=O)(=O)Nc1cccc(-c2csc(NC(=O)CSc3nc4nccnc4c(=O)n3CCc3ccccc3)n2)c1
PIK3CD	KINOMEscan	1 µM		remaining binding	0.75%	C=CC(=O)N1CCC(COCC(=O)N2CCN(c3nc(-c4cnc(N)nc4C(F)F)nc(N4CCOC[C@@H]4C)n3)CC2)CC1

Excerpt of the above:
target	test	conditions	scale	quantity	result	SMILES
PIK3CD with p85 alpha	kinase activity, inhibitor	1 µM		inhibition	4%	C=CC(=O)Nc1cc(Nc2nccc(Nc3cc(Cl)c(F)cc3C(C)(C)O)n2)c(OC)cc1N1CC[C@@H](N(C)C)C1
